Assay results pooled from the literature.
Each numbered part is a random draw from the data of one study; scales do not carry over between parts. Positions count from the first letter of the parent shown.

Block 1 — method: aptamer microarray, sandwich; molecule type: DNA with 2'F-ANA; sample: in vitro; concentration: 200 nM; together with: Cy3 exosite-II aptamer, 400 nM; reading: higher = stronger binding; sequence: GGTTGGTGTGGTTGG
Target: Prothrombin, mature alpha-thrombin (F2, Homo sapiens, UniProt P00734)
Setting: whole 15-mer aptamer, many near background
| Modification | mean fluorescence intensity [a.u.] |
| --- | --- |
| 2'F-ANA at 3 9 11 13 | 997 |
| 2'F-ANA at 1 2 5 6 8 10 11 13 | 51.4 |
| 2'F-ANA at 3 4 5 7 10 | 74.7 |
| 2'F-ANA at 1 4 6 9 10 13 14 | 45.4 |
| 2'F-ANA at 2 3 5 8 10 11 15 | 54.7 |
| 2'F-ANA at 4 11 15 | 252 |
| 2'F-ANA at 1 6 8 9 14 15 | 57.1 |
| 2'F-ANA at 1 3 4 5 6 8 9 15 | 71.6 |

Block 2 — method: RNAcompete; molecule type: RNA; sample: in vitro; concentration: 20 nM; setting: 7-mer, probes averaged, single round; baseline: mean of 7-mers; reading: higher = stronger binding
Target: PABPC1L2, full length, GST fusion (mouse, UniProt A0ABA7IW68)
Construct (chain): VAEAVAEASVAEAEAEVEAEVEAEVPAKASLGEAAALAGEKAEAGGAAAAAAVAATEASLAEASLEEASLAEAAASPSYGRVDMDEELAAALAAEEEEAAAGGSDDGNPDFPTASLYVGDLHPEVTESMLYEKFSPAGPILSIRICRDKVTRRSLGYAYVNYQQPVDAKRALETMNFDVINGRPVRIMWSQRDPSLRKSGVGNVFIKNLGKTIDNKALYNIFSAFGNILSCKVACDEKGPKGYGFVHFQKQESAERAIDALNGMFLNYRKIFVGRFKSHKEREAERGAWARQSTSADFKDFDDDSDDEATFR
| Sequence | 7-mer Z-score |
| --- | --- |
| CACAUGG | -0.106 |
| UCAUUCA | -0.186 |
| UGUCUUG | -0.38 |
| UAAUGCC | -0.151 |
| CUUCCCA | -0.407 |
| CUGGCCA | -0.298 |
| GCAUCAG | 0.175 |
| GGCAGCC | -0.101 |

Block 3 — read-out: peptide-MHC binding; molecule type: peptide; concentration: concentration not given
Target: HLA class I histocompatibility antigen, C alpha chain, allele C*04:01 (Homo sapiens, UniProt P10321)
| Molecule | binding |
| --- | --- |
| YAIYTLGEM | inactive |
| ETVWPFFYA | inactive |
| SVIDHIHYM | inactive |
| SYMMDDLELI | inactive |
| VYTNAIQYV | inactive |
| FTSSFYNYV | inactive |
| MTHPQSEAA | inactive |
| MMYTVSLGK | inactive |

Block 4 — target: CCND1, cyclin fold, Cln2 fusion (human); method: yeast growth competition, sequencing; sample: yeast; setting: weak parent motif; baseline: not given; reading: higher = stronger binding
Starting sequence: viral docking peptide; TSVRRALFTGGSD; partner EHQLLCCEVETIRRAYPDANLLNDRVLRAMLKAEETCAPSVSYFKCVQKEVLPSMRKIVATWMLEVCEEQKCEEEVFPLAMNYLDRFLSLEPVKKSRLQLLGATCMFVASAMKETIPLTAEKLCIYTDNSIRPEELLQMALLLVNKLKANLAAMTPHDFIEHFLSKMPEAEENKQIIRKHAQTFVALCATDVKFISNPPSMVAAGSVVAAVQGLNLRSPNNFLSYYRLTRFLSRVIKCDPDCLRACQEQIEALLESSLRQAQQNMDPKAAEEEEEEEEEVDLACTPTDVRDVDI
| Variant | normalised enrichment score |
| --- | --- |
| TSVRRATFTGGSD [L7T] | 0.151 |
| TSVRRALFTFGSD [G10F] | 0.463 |
| TSVRRALFDGGSD [T9D] | 0.379 |
| TSVRRALFEGGSD [T9E] | 0.337 |
| TSVRRALSTGGSD [F8S] | -0.00891 |
| TSVRRALTTGGSD [F8T] | -0.365 |
| TSVRRALRTGGSD [F8R] | 0.00762 |
| TSVRRMLFTGGSD [A6M] | -0.0845 |
| TSVRRLLFTGGSD [A6L] | 0.379 |
| TSVRRAKFTGGSD [L7K] | 0.00901 |
| TSVRRALFQGGSD [T9Q] | 0.47 |
| TSVRRALFTGGYD [S12Y] | 0.374 |
| TSVRRALFTGVSD [G11V] | 0.449 |
| TSVRRALFTEGSD [G10E] | 1.86 |
| TSVRRFLFTGGSD [A6F] | 0.644 |
| TSVRRALFTGESD [G11E] | 0.845 |
